Experimental data collected from several papers.
Numbered parts are unrelated; each lists some results of a single study. Several values in a cell are separate wells, animals, samples, runs or records. Substitutions count along the parent as printed.

Sample 1
Target: CCNB3, cyclin fold, Cln2 fusion (human)
Method: yeast growth competition, sequencing
Matrix: yeast
Notes: weak parent motif
Reference: not given
Reading: higher = stronger binding
Parent: viral docking peptide; KKVKRRLFETREL; partner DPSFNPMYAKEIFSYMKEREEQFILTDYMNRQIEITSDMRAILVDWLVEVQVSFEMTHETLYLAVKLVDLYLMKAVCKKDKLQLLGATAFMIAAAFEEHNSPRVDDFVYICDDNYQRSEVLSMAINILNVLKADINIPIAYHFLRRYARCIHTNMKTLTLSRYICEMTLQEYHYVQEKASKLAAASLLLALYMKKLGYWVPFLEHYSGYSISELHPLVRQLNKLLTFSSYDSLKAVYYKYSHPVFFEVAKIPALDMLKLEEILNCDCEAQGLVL
Substitution	normalised enrichment score
KKVKRRAFETREL [L7A]	-0.184
KKVKRRLFETRAL [E12A]	0.362
KKVKRRLFATREL [E9A]	0.28
KAVKRRLFETREL [K2A]	0.996

Sample 2
Target: UDP-N-acetylglucosamine--peptide N-acetylglucosaminyltransferase 110 kDa subunit (OGT, Homo sapiens, UniProt O15294)
Observed: phage display binding
Method: phage display panning NGS
Form: peptide
Reference: OGT-panned over input library
Target sequence (O15294 1-1046): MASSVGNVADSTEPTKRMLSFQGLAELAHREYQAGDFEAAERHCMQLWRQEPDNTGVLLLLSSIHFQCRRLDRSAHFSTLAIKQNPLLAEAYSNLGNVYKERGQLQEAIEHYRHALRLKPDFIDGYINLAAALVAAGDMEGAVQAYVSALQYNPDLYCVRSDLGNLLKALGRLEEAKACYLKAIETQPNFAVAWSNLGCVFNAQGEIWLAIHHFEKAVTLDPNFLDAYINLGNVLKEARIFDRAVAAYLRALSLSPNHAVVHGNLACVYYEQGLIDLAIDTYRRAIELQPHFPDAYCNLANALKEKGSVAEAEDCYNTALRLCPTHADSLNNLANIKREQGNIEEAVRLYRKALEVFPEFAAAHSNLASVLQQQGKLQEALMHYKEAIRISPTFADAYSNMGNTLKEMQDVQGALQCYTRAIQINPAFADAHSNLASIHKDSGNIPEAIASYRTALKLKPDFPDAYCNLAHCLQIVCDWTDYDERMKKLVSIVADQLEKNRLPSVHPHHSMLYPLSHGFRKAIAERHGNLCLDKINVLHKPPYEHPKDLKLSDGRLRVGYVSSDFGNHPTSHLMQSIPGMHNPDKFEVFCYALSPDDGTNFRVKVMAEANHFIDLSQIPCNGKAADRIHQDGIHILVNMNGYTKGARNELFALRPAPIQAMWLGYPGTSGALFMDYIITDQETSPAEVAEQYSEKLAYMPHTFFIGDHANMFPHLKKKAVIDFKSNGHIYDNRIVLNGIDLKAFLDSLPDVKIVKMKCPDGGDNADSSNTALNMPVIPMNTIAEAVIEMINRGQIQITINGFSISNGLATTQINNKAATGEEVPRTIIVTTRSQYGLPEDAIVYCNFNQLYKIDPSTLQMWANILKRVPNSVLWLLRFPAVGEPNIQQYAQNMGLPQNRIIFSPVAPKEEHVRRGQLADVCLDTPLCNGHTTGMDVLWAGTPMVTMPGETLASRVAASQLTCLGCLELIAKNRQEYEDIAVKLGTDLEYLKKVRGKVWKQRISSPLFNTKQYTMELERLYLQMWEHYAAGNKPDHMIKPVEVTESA
Molecule	log2 fold enrichment
HFKWYGWSEMDQHTH	4.28
VTPMHDHFHHINMSV	2.88
ETNQYLPTYQIMYQF	6.05
TSATSYLPYYTIYPG	3.18
QHPLHHDMHHMRVMD	2.45
TMQHQTHMVNHTWWH	2.7
QYLHPHHHFAGMTG	2.27
NYYGQHHHVLQHGDE	2.61

Sample 3
Target: tungstate, free oxyanion
Method: microfluidic competitive inhibition
Matrix: in vitro, cell-free expressed
Tested at: not given
Notes: derived from inhibition constants, unchanged parent 2230 nM
Reading: lower = stronger binding
Parent: PafA, mature enzyme, eGFP fusion (Elizabethkingia meningoseptica, UniProt Q9KJX5); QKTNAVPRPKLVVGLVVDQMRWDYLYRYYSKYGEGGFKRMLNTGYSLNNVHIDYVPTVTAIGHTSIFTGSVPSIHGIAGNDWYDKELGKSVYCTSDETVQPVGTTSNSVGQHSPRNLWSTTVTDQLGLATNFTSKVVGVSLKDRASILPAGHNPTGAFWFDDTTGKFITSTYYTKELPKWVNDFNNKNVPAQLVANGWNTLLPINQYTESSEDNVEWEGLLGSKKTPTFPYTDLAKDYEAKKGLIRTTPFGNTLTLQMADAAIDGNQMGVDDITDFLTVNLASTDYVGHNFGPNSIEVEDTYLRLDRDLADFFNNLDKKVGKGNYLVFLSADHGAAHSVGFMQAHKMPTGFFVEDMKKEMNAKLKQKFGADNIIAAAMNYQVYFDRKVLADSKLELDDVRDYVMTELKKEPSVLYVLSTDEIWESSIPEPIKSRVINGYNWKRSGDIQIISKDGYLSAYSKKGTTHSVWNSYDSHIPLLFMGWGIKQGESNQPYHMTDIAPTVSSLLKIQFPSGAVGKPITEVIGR
Substitution	oxyanion analog dissociation constant [µM]
E97G	2.02
A335G	1.68
D391V	2.31
D446G	2.31
V287A	2.17
A240V	2.33
G514A	1.65
N116V	2.42

Further values, each from its own experiment
Compound	host	dose	time	measurement	value
CN(N=O)C(=O)N[C@@H]1[C@@H](O)[C@H](O)[C@@H](CO)O[C@@H]1O	mice, STZ diabetic neuropathy	dose not given	7 days after STZ	body weight	31 g and 34.8 g and 35 g and 36.5 g

Excerpt of the above (sample 3):
Substitution	oxyanion analog dissociation constant [µM]
D391V	2.31
A335G	1.68
N116V	2.42
